Assay results from different studies.
A part holds a random share of what one study measured.
UniProt Q13557, sequence (whole entry, looked up): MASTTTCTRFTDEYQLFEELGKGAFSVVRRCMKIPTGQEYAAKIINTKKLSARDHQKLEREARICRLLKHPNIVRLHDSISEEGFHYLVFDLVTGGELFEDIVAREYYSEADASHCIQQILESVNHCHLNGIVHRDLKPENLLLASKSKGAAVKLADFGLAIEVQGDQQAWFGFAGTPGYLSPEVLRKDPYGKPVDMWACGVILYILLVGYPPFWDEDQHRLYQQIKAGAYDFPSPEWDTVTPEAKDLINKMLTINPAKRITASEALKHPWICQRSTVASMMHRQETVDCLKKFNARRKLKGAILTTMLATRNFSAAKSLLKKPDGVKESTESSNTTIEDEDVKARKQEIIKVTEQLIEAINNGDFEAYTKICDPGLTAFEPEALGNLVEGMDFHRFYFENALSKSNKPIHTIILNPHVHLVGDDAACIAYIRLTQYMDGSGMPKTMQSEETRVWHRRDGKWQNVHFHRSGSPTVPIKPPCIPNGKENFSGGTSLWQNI

Set 1 — technique: RNA Bind-n-Seq; molecule type: RNA; sample: in vitro; tested at: not given; reference: input RNA pool; direction: higher = stronger binding
Target: RING finger protein unkempt homolog, zinc fingers 1-6, GST-SBP tag (UNK, Homo sapiens, UniProt Q9C0B0, residues 30-357)
UniProt Q9C0B0, sequence (30-357, looked up): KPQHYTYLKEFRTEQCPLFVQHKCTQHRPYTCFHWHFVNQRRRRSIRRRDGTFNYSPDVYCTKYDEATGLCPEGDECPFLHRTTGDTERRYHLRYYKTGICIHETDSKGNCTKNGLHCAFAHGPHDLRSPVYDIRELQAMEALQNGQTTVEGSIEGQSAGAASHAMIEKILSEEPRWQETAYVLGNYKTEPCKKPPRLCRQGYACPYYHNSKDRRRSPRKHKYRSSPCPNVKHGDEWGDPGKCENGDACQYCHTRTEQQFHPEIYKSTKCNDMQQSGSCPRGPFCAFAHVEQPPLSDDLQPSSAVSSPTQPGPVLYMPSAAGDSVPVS
Notes: RNA with constant flanks, human and mouse sites, ends assumed
Constant ends, left off below: GGGAGUUCUACAGUCCGACGAUC … CAACAGAGGAUUGAGCAUCA
Oligonucleotide | bound/input enrichment [ratio]
GAGAAACUCAAGACCAUCAGCUUGGUGAUUCGCAGUACCCAGGGGGCUGAGGAGGUGCUUAAAACCCAUGAGGAGCAGCUGAAGGAGGCCCAGGCUGUGCCUGCCACUCUCCAAGAGCUU | 0.11
AUCUCCCGGUCCCCCGCCCGCGGCAGACAUGGCGGUGGACUCGUCUAUGGAGCUGCUAUUUUUAGAUACUUUUAAACAUCCGAGCGCUGAGCAAAGUUCUCAUAUAGAUGUGGUUCGUUU | 7.55
AGCAAAAAGAACAAUAUAUUUGCUCAGUUCAGGAAGAAUGAUCGAGACAAACAGAAGUUGAUAGAGACAGUCGUGAAACAGCUGAGAAGUUUGGUGAAUGGUAUGUCCCAGCACAUGUAG | 0.319
GGUUUCCAUGGAGAUUGUCUCACUUUGACAAAGAUUAUUGAAGCAAGAUUAAAGAUGUACAAGCAUUCCAAUAACAAGGCCAUGACAACGGGGGCGAUUGCUGCAAUGCUGUCUACCAUC | 0.154
AGAGACUGGGUCACAAACCCUGGGCUUUUCAAUCAGCCACUGACUUCCCUUCCUGUCAGUAGCAUACCCAUCUAUAAAUUACCAGAGGGAUCACCAACAUGGCUGGGAAUAUCCUGCAGU | 0.436
GGAGAAAAUUUUGCCUAUGUUCAAAUUAAGACAAUUUGGUCGACUAUGCUUCGUUUAUAUGAAUUUGACCUCAUCAAUGGAUAUUUUCCCACUGUGAAUUAUACAACAAUGAUCCACACC | 0.191
CUUGCCCUGAACUGGUCCUCUUGUCCCAUCCUGUCCCCGCCCUGGCCCCUUUGUGCCUCCCCCUCCCUCUUUCUCUCUCCCUUUCUGGCUUGGCAAUCCCUUCUUCACCUCCAACUCCCU | 1.26
AAUAAACAGGAUAUGAAAGGGUGCAUGACAGCAGCUGAAAUCUCCAAAUACCUCACCCUAAGUUCAAUCAAGGACCACCCGUGGCACAUCCAGUCGUGCUGUGCGCUCACAGGAGAAGGG | 0.17

Set 2 — Molecule: HSPD1 (Homo sapiens, UniProt P10809); technique: cross-linking MS; sample: cell fractions
partner | conditions | cross-linked residues
FAM120B (Homo sapiens, UniProt Q96EK7) | added: DMTMM | D531 to K97
RTN4 (Homo sapiens, UniProt Q9NQC3) | added: DSSO | K236 to K501
NT5C1B (Homo sapiens, UniProt Q96P26) | added: DMTMM | E386 to K523
DNAH2 (Homo sapiens, UniProt Q9P225) | added: DHSO | D100 to E3289
MED13L (Homo sapiens, UniProt Q71F56) | added: DSSO | K364 to K478
ATP5F1A (Homo sapiens, UniProt P25705) | added: DSSO | K133 to K531
IRF2BPL (Homo sapiens, UniProt Q9H1B7) | added: DHSO | D423 to E356
PYCR2 (Homo sapiens, UniProt Q96C36) | added: DSSO | S70 to K283

Set 3 — technique: protein-binding microarray; molecule type: double-stranded DNA, one strand shown; sample: in vitro; tested at: 940 nM top; notes: 60-bp whole probe; added: salmon DNA 0.4 mg/ml; reference: random background probes; direction: higher = stronger binding; constant ends, left off below: GCCTAGCAC … GTCTTGATTCGCTTGACGCTGCTG
Target: Interferon regulatory factor 5, full length, phosphomimetic (IRF5, Homo sapiens, UniProt Q13568-2, residues 1-514, S451D/S453D/S456D/S462D)
Oligonucleotide | fitted relative affinity [z-score]
GACGGCTTCGGGTATCGGGACGTGCTA | 0.574
GACGATATCAGTCTCTAGACGTGCTAG | -0.0463
TCAGATTTTGGTCTTTCACTGTGCTAG | 0.646
CTAGATTTCAGTCTCGATTAGTGCTAG | 4.05
TTATATCTCAGTCTCGATTAGTGCTAG | 3.66
GACGCTATCGGGTTTCGAGACGTGCTA | 2.05
TCAGATTTCAGTATCGATTAGTGCTAG | 6.08
GACGGACTGGGGTTGCGGGACGTGCTA | -0.00133

Single results of other studies
Compound | target | test | conditions | how to read | endpoint | value
FC(F)(F)c1ccc(/C=C/c2nc(COc3ccc(CCCCn4ccnn4)cc3)co2)cc1 | Calcium/calmodulin-dependent protein kinase type II subunit delta (CAMK2D, Homo sapiens, UniProt Q13557) | enzyme activity, inhibitor | 0.5 µM | reference: control | remaining activity | 109%

Excerpt of the above (set 3):
Oligonucleotide | fitted relative affinity [z-score]
GACGGACTGGGGTTGCGGGACGTGCTA | -0.00133
CTAGATTTCAGTCTCGATTAGTGCTAG | 4.05
